Measurements gathered from unrelated publications.
Numbered parts are unrelated; each lists some results of a single study. Substitutions count along the parent as printed.

Study 1
Target: Interferon regulatory factor 5, full length, phosphomimetic (IRF5, Homo sapiens, UniProt Q13568-2, residues 1-514, K96S/S451D/S453D/S456D/S462D)
Method: protein-binding microarray
Form: double-stranded DNA, one strand shown
Sample: in vitro
Concentration: 250 nM
Setting: 60-bp whole probe
Together with: salmon DNA 0.4 mg/ml
Baseline: random background probes
Direction: higher = stronger binding
Shared flanks, not repeated: GCCTAGCAC … GTCTTGATTCGCTTGACGCTGCTG
`TTAGGACTGGGTCTCGTTTAGTGCTAG` has a log fluorescence of -0.354 z-score.
`TTACGTATCGGGTATCGGTTAGTGCTA` gave a log fluorescence of 7.66 z-score.
`ATGCTTCTGGTCTTCTGGGCGTGCTAG` has a log fluorescence of 0.116 z-score.
With `TTAGATCTCCGACTGGATTAGTGCTAG` the log fluorescence was -0.0326 z-score.
For `TCACTTCTGTATTCATGACTGTGCTAG`, the log fluorescence was 0.798 z-score.
`TCTTTTATGGTATTTTTTTGGTGCTAG` gave a log fluorescence of 1.24 z-score.
The log fluorescence of `TTGGGTATCGGTTTCGGTTAGTGCTAG` is reported as 11 z-score.
The log fluorescence of `TCATTTTTCTAACTAAAACTGTGCTAG` is reported as 1.13 z-score.
The log fluorescence of `TCACTCCTCTTTTTTTGACTGTGCTAG` is reported as 0.701 z-score.
For `TCATCATTGCATATAGAACTGTGCTAG`, the log fluorescence was 0.505 z-score.
`GACGATTCCAGTTTCGACACGTGCTAG` gave a log fluorescence of 6.59 z-score.
`TTCGAACTGAGTATCGATTAGTGCTAG` has a log fluorescence of 7.05 z-score.
The log fluorescence of `TTAGATATCAGTCTCGATTTGTGCTAG` is reported as 1.93 z-score.
The log fluorescence of `TCAGTAATCGAAATCTTACTGTGCTAG` is reported as 1.24 z-score.
`TCATATACCACTCTTGCACTGTGCTAG` gave a log fluorescence of 0.27 z-score.
`GACGGAATCGACTTTCGGGACGTGCTA` has a log fluorescence of 5.75 z-score.
`CTAATATTGAGACTCATGGGGTGCTAG` gave a log fluorescence of 0.0553 z-score.
`TGAGGTTTCGGGTATCGGTTAGTGCTA` gave a log fluorescence of 8.35 z-score.
The log fluorescence of `GACGAACTAAGTTTCGAGACGTGCTAG` is reported as 4.54 z-score.

Study 2
Target: Histone acetyltransferase KAT6A, both winged helices, GST fusion (KAT6A, Homo sapiens, UniProt Q92794, residues 1-181)
Method: protein binding microarray
Form: double-stranded DNA, one strand shown
Sample: in vitro
Concentration: not given
Setting: 8-mer, flanks averaged, mean of 2 arrays, mostly near background
Baseline: not given
Direction: higher = stronger binding
Construct (chain): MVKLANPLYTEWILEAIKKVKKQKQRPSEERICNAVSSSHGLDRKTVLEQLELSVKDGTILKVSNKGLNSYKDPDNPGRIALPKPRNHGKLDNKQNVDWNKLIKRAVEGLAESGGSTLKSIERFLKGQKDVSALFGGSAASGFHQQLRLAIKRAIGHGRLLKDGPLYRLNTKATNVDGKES
`GAACAGCA` has an E-score of -0.0766.
`GTAGTGCA` gave an E-score of -0.031.
`TGGCCCCA` has an E-score of -0.279.
The E-score of `GGAAAAAC` is reported as 0.0767.
With `CCCCGCAC` the E-score was 0.203.
`GCGGTACA` has an E-score of 0.246.
The E-score of `GGGATATA` is reported as -0.108.
For `AACCTAGG`, the E-score was -0.093.
`GTTGGAGA` gave an E-score of -0.107.
The E-score of `ACTCGACT` is reported as -0.304.
`ACCTTGCG` gave an E-score of 0.0862.
`ACAAGACG` gave an E-score of 0.0801.
The E-score of `AGCTCACT` is reported as -0.159.
With `AAAGGACC` the E-score was -0.0489.
The E-score of `AACATCAA` is reported as 0.0241.
The E-score of `CCCTGTCG` is reported as 0.00358.
With `CCACTAAC` the E-score was -0.239.

Study 3
Target: RING finger protein unkempt homolog, zinc fingers 1-6, GST-SBP tag (UNK, Homo sapiens, UniProt Q9C0B0, residues 30-357)
UniProt Q9C0B0, sequence (30-357, looked up): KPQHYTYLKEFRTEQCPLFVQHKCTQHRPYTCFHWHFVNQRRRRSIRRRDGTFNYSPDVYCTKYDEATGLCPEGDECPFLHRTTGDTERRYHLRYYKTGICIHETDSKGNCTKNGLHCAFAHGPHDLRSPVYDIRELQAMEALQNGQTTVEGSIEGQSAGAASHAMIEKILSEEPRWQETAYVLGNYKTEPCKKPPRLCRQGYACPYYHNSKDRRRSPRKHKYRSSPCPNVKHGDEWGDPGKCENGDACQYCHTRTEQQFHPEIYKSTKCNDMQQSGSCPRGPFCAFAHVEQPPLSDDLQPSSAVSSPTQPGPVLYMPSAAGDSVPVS
Method: RNA Bind-n-Seq
Form: RNA
Sample: in vitro
Concentration: not given
Setting: RNA with constant flanks, human and mouse sites, ends assumed
Baseline: input RNA pool
Direction: higher = stronger binding
`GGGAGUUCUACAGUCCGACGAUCAAUCUUGGAAUGAGUUCUUCAUUGAAUCAACAAGGAGCUCAUAGUGCACUGUCUUCUGCUAGUACUUCUUCCCAUAAUUUGCAGUCUAUAUUUAACAUUGGAAGUAGAGGUCCACUCCCUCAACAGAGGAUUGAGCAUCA` gave a bound/input enrichment of 0.581 ratio.
For `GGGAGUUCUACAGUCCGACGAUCCCUCUCCCCAGUCUGCUCCUGGAAACUUGGACAAUAGUAAAAGUGGAGAAAUUAAAGGUAAUGGAAGUGGUGGAAGCAGAGAAAAUAGUACUGUUGACUUCAGCAAGGUUGAUAUGAAUUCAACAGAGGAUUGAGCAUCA`, the bound/input enrichment was 0.897 ratio.
`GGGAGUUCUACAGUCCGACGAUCUAUGUGGAGACAGAACUGAUAUUCGCACUGGCUAAAACAAACCGCCUUGCAGAGUUAGAAGAAUUUAUCAAUGGACCAAAUAAUGCUCAUAUCCAACAAGUUGGUGACCGUUGUUAUGAUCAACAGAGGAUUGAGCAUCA` gave a bound/input enrichment of 9.82 ratio.
`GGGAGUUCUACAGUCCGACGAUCCACUGCCCAGCUGGAGAACUGUCCAGUAUGGCCUGUUGACACCAUUCAGACCCCACAGGAGCGCUGUAUGUCCGUGCUCCUUUUCCCUUUUGGGCUGGUGCUGCCACUCAGCAAUAAUCCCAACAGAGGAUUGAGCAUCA` gave a bound/input enrichment of 0.12 ratio.
The bound/input enrichment of `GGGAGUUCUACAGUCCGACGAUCUUAUGUGAUAUGAGAAGUUAUUUUUCUUUCUUUGAAGUAACAUGGAUUUUAUACUACAGAAUCAAGAGAAUUGGCUUUAUAGCAAAUUUUGAUAUAUAAAAAGUGGUACAGGUUUUUAUACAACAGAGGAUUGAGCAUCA` is reported as 0.491 ratio.
The bound/input enrichment of `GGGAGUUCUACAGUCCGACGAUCACAGGUCAAGUGGUAGCCAUGAAAAAAAUCAGACUAGAAAGUGAAGAGGAAGGGGUUCCUAGUACUGCAAUUCGGGAAAUUUCUCUAUUAAAGGAACUUCGUCAUCCAAAUAUAGUCAGUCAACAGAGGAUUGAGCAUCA` is reported as 0.241 ratio.
With `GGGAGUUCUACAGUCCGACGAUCAAAUCAUGUGUGUCAAAUAUUGAAAGUACUUUAUCUGCACUCCAAUAUGUAAGCAGCAUAGUAGUUUCUUUAGAGAAUAGGUCUGCCAUUGUGAAGUAUAAUGCAAGCUCAGUCACUCCACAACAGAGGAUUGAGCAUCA` the bound/input enrichment was 2.39 ratio.
For `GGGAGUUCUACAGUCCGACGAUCAGAAAGCUACUUGAAGGAAAUUUUGCCAAAGAAGUGAGCCAUGAAAUGGAUGGACUUAUUUUUCAGCCUACUGGAAAAUACAAACCUGGUCGAUGUGAUGAUAUUUUGAAAUGGAAGCCUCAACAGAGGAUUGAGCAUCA`, the bound/input enrichment was 0.242 ratio.

Study 4
Target: RNA binding protein fox-1 homolog 2, RRM domain, GST-SBP tag (RBFOX2, Homo sapiens, UniProt O43251-10, residues 100-194)
Method: RNA Bind-n-Seq
Form: RNA
Sample: in vitro
Concentration: 365 nM
Setting: natural RNA segment, single round, ends assumed
Baseline: no-protein control
Direction: higher = stronger binding
Residues (chain): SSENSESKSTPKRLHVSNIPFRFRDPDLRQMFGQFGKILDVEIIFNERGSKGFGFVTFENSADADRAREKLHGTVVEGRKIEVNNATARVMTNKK
`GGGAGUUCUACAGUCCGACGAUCUCAGGCAUCUUCCCUUCACUCAAGCUUGGCUGCUUUCCUAGAUCCACACUUUCAAAGAGAAACCCCUCCAGAACUCCCACCCUGACAGCCCAACACCACCUUCCUCCUGGUGGAAUUCUCGGGUGCCAA`: “RBNS enrichment (R)” 0.353.
`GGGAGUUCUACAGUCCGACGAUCAUUACCAAAAGAAAAGGUAAGGUGGCAACCUUAUUUUUAAUAGUUUGAAAUGAUGAUAAUCCUAAUUAUAUAAAAAUAUAUAUAUAAACACACAUAUAUAUAGUGAUUUCUGGAAUUCUCGGGUGCCAA` — result for “RBNS enrichment (R)”: 1.24.
`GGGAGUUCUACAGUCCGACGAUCUUUUGGGGAAGGGGAGGAUAGCGAGAAGAUGCUCUGGGGGUUUUGUUUUUGCUUUUCCUUCAGGGUUUUAUUUUUGACUGUUUUGUUUUCUUGUUGGCCAUUUCUGUAUUUGGAAUUCUCGGGUGCCAA` — result for “RBNS enrichment (R)”: 1.17.
`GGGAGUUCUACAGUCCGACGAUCGGGUUCUUUCCCCUCCCUCUCAUGAGAGUAAAGUCCCCAGCAGAUUUGAGUGAGUCAGGGGAAACACCCUCUUCCUACUUACACUUGUCUCGCCCACCCCCCAUUCUCUCUGGAAUUCUCGGGUGCCAA` — result for “RBNS enrichment (R)”: 0.463.
Under “RBNS enrichment (R)”, `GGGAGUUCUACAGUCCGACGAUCAGAAGAAAUGAACUACUGCAACUUAUGAGGAAUCAUGAGAUCCAGCUCACUUUUGCUCAAUACCUAUCAAAAGCUUGUCCCAGAGUGAUUAUGGAGGAUUGCAUGCAGGAUGGAAUUCUCGGGUGCCAA` is recorded as 6.22.
For `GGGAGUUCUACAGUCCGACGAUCAAGAUUGUAUGCUAUUAUGUCUUGUAAAAAUUCCUUCUGUUGGUGUAAAUAUGGAAAUGCCACAUUGGUUAAGUGCCAUCAAUUGUAAUGCAGUGUGUCAUUUGAAAAGAUGGAAUUCUCGGGUGCCAA`, “RBNS enrichment (R)” read 1.54.
Under “RBNS enrichment (R)”, `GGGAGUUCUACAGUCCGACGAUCUUAUUUUUGCUGAUUUGAUGUGGUUUCAACUAACCCAAGGUCUCACAAUGUUCAAAUGGCGGCUGACUCUACAGCAUUCUGUAGGUCCCUGCCCCCCUAGCUGAAGGGGUUGGAAUUCUCGGGUGCCAA` is recorded as 0.323.
`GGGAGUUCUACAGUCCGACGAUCGACAGUCACCCUCCCUCUGCUGGGAUGAGGUCCAGGAGCCAACUAAAACAAUGGCAGAGGAGACAUCUCUGGUGUUCCCACCACCCUAGAUGAAAAUCCACAGCACAGACUGGAAUUCUCGGGUGCCAA`: “RBNS enrichment (R)” 0.397.

Study 5
Target: CCNE1, cyclin fold, Cln2 fusion (human)
Method: yeast growth competition, sequencing
Sample: yeast
Setting: strong parent motif
Baseline: not given
Direction: higher = stronger binding
Parent: CDC25A docking peptide (human); PPHRRRLLFACSP
For `SPHRRRLLFACSP [P1S]`, “normalised enrichment score” read 2.96.
`PPHRRRLLFFCSP [A10F]`: “normalised enrichment score” 0.982.
Under “normalised enrichment score”, `PPHRRELLFACSP [R6E]` is recorded as 0.562.
Under “normalised enrichment score”, `PPHRRRLLFAHSP [C11H]` is recorded as 1.02.
Under “normalised enrichment score”, `PPHRRRLLFAFSP [C11F]` is recorded as 1.6.
For `PPHHRRLLFACSP [R4H]`, “normalised enrichment score” read 0.15.
`PPWRRRLLFACSP [H3W]` — result for “normalised enrichment score”: 2.25.
`PPHRRRLLFACMP [S12M]` — result for “normalised enrichment score”: 1.16.
For `PPHFRRLLFACSP [R4F]`, “normalised enrichment score” read 1.19.
Under “normalised enrichment score”, `PPHRRRILFACSP [L7I]` is recorded as 1.12.
For `PPHRRRGLFACSP [L7G]`, “normalised enrichment score” read 0.131.
Under “normalised enrichment score”, `PPHRRPLLFACSP [R6P]` is recorded as 0.449.
For `PPHTRRLLFACSP [R4T]`, “normalised enrichment score” read 0.637.
For `PPHRRRLLFACQP [S12Q]`, “normalised enrichment score” read 0.357.
`PRHRRRLLFACSP [P2R]` — result for “normalised enrichment score”: 1.63.
For `PPSRRRLLFACSP [H3S]`, “normalised enrichment score” read 1.39.
`NPHRRRLLFACSP [P1N]` — result for “normalised enrichment score”: 0.589.
